Results gathered from unrelated publications.
A part holds a random share of what one study measured. “And” joins repeats or separate records; there may be more than shown.

Series 1
Target: Replicase polyprotein 1ab, polymerase (rep, Severe acute respiratory syndrome coronavirus 2, UniProt P0DTD1)
Effect on: enzyme activity
Action: inhibitor
Tested at: 20 µM
Endpoint: inhibition
Nc1ccc(O)c(C(=O)O)c1: 2.2%
S=C(NC1CCCCC1)N1CCC(c2cnc[nH]2)CC1: -2.84%
CCCC(=O)c1cc(F)ccc1OCC(O)CNC(C)(C)C (stereo not drawn): -3.29%
CC1(C)CC[C@]2(NC(=O)C(C)(F)F)CC[C@]3(C)[C@H](C(=O)C=C4[C@@]5(C)C=C(C#N)C(=O)C(C)(C)[C@@H]5CC[C@]43C)[C@@H]2C1: 2.64%
C[C@]1(O)C[C@@H](c2nc(-c3ccc4ccc(-c5ccccc5)nc4c3)c3c(N)nccn32)C1: 2.13%
C(=C\c1ccccc1)/CN1CCN(CCOC(c2ccccc2)c2ccccc2)CC1: 3.49%
Cc1ncc(C[n+]2csc(CCOP(=O)(O)OP(=O)(O)O)c2C)c(N)n1: 3.51%
C#C[C@]1(O)CC[C@H]2[C@@H]3CCC4=CC(=O)CC[C@@H]4[C@H]3CC[C@@]21C: 0.67%
COc1ccc(Nc2ncnc3ccc(OC)cc23)cc1: 3.25%
O=C1Cc2c([nH]c3ccc(Br)cc23)-c2ncccc2N1: -1.53%
c1ccc(NCc2ccc(CNc3ccccn3)cc2)nc1: -2.76%
COc1ccc(OC)c(C(O)CNC(=O)CN)c1 (stereo not drawn): -2.97%
CCCCCCCC/C=C\CCCCCCCC(=O)NCc1ccc(O)c(OC)c1: 2.2%
CCC/N=C1\S/C(=C\c2ccc(OC[C@H](O)CO)c(Cl)c2)C(=O)N1c1ccccc1C: 1.26%
N=C(N)NCCC[C@@H](NC(=O)[C@@H]1CCCN1C(=O)[C@@H]1CSSCCC(=O)N[C@@H](Cc2ccc(O)cc2)C(=O)N[C@@H](Cc2ccccc2)C(=O)N[C@@H](CCC(N)=O)C(=O)N[C@@H](CC(N)=O)C(=O)N1)C(=O)NCC(N)=O: 6.93%
c1ccc(N2CCN(CCCOc3ccc4c(c3)OCO4)CC2)cc1: 5.11%
Cc1[nH]c(/C=C2\C(=O)Nc3ccc(S(=O)(=O)Cc4c(Cl)cccc4Cl)cc32)c(C)c1C(=O)N1CCC[C@@H]1CN1CCCC1: 15.2%
Cc1cc(Cn2cnc3c2C[C@@H](C(=O)O)N(C(=O)C(c2ccccc2)c2ccccc2)C3)ccc1N(C)C: -0.51%
CCc1cc(C(C)=O)c(O)cc1OCCCCCC(C)(C)c1nn[nH]n1: 7.01%
COC(=O)[C@H](c1ccccc1Cl)N1CCc2sccc2C1: -9.93%
CC(C)N(CCCNC(=O)Nc1ccc(C(C)(C)C)cc1)C[C@H]1O[C@@H](n2cc(Br)c3c(N)ncnc32)[C@H](O)[C@@H]1O: -4.31%
Oc1c(I)cc(I)c2cccnc12: 23.7%
O=C(c1ccc(OCCN2CCCCC2)cc1)c1c(-c2ccc(O)cc2)sc2cc(O)ccc12: -2.03%
CC(C)Oc1ccc(-c2cnc3c(-c4ccnc5ccccc45)cnn3c2)cc1: -2.95%
NCCCCCNCC12CC3CC(CC(C3)C1)C2: -0.79%

Series 2
Target: Interferon regulatory factor 5, full length, phosphomimetic (IRF5, Homo sapiens, UniProt Q13568-2, residues 1-514, S451D/S453D/S456D/S462D)
Method: protein-binding microarray
Form: double-stranded DNA, one strand shown
Matrix: in vitro
Tested at: 940 nM top
Setting: 60-bp whole probe
Added: salmon DNA 0.4 mg/ml
Baseline: random background probes
Reading: higher = stronger binding
Endpoint: fitted relative affinity
Constant ends, left off below: GCCTAGCAC … GTCTTGATTCGCTTGACGCTGCTG
TTAGGTCTCGGTATTGGTTAGTGCTAG: 4.59 z-score
TTATGACTGGACTTTCGGTTAGTGCTA: 2.84 z-score
TCACCTCCAGGTTCTCTGACTGTGCTA: 0.13 z-score
GGCGGTATCGGGTTTCGGGACGTGCTA: 5.8 z-score
GTCGGTTTCGGTATCGGGACGTGCTAG: 16.3 z-score
TTAGGTATCGGTCTCGGTCAGTGCTAG: 10.2 z-score
TTAGATTTAAGACTGGATTAGTGCTAG: -0.423 z-score
GACGGTATCGGGACTGGGGAGGTGCTA: 3.58 z-score

Series 3
Target: Ras GTPase-activating protein-binding protein 1, RRM domain (G3BP1, Homo sapiens, UniProt Q13283)
Chain of UniProt Q13283 (whole entry, looked up): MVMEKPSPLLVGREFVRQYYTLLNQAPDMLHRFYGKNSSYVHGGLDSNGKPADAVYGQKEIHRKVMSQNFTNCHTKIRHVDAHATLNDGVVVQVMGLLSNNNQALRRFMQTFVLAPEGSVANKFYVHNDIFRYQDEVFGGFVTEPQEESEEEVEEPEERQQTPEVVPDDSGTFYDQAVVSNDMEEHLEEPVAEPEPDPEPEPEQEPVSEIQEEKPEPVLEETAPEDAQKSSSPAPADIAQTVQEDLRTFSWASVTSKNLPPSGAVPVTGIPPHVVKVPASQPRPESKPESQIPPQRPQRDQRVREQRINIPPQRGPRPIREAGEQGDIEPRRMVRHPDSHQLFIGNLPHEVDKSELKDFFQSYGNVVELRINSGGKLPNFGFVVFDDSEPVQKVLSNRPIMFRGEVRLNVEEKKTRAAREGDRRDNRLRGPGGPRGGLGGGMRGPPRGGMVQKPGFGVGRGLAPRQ
Method: RNA Bind-n-Seq
Form: RNA
Matrix: in vitro
Tested at: 1 µM
Setting: whole 134-nt RNA, ends assumed
Added: 150 mM KCl
Baseline: input library
Reading: higher = stronger binding
Endpoint: log2 enrichment
Constant ends, left off below: GGGAGUUCUACAGUCCGACGAUC … UGGAAUUCUCGGGUGUCAAGG
UGGGAGGUGGAUUUUGUUUAUUUUUUUACCUCAUUUCCAGGGGUGGGAAUUUUUUUUUAAUAUGUGUCAUGAAUAAAGUUGUUUUUGAAA: 1.75
AGUCCUGUGCUACACAUCGUAUGUACCGAAUCGGGGAAAAGGGAAAAGGGGAAAAGGGAAAGUAUUAUGUUACGCCGUUCGGAUCUGCAC: 0.372
UUACAGAUGUAGAGCUAAAACGACUGAAGGAUGCUUUCAAGAGGACCUGUGGACUCUCAUAUUACAUGGGCCAGCACUGCUUCAUCCGGG: 0.188
CUGUGCUACACAUCGUAUGUACCGAAUCGGGAAAAAAAGGGGAAAAAAAGGAAAAAAAGGGAAAGUAUUAUGUUACGCCGUUCGGAUCUG: 0.0924
UGCAGCUCUCCGGCUGGGAUCCUGGUUGACGCCAUGUCCCAGAAGCACCUUCAGAUCAACCAGACAUUUGAGGAGCUGCGACUGGUCACG: -0.421
AAGUCCUGUGCUACACAUCGUAUGUACCGAAUCGGGUUUGGGUGGGAAAAAAAGGGAAAGUAUUAUGUUACGCCGUUCGGAUCUGCACUU: 0.303
AAGUCCUGUGCUACACAUCGUAUGUACCGAAUCGGGUUUGGGAGGGUUUUUUUGGGAAAGUAUUAUGUUACGCCGUUCGGAUCUGCACUU: 0.305
UAACUUUAGAGGAGGAGCUGAUGGAUAUGGCAGUGGACGUGGAUUUGGGGAUGGCUAUAAUGGGUAUGGAGGAGGACCUGGAGGUGGCAA: -0.662

Series 4
Target: Replicase polyprotein 1ab, main protease (rep, Severe acute respiratory syndrome coronavirus 2, UniProt P0DTD1)
Effect on: enzyme activity
Action: inhibitor
Tested at: 20 µM
Setting: hit confirmation, with DTT
Endpoint: inhibition
O=[N+]([O-])C=Cc1ccc2c(c1)OCO2: 6.5%
CN1C(=O)C(N2CCCCC2)S/C1=C\C(=O)O (stereo not drawn): 3.5%
O=C(O)[C@@H](S)[C@@H](S)C(=O)O: 99.8% and -8.7%
O=c1cc(-c2ccccc2)oc2cc(O)c(O)c(O)c12: -20.1% and 95.4%
O=C1C=Cc2cc(Br)ccc2C1=O: 83.1% and 37.4%

Series 5
Cell line: HEK-293T
Effect on: pseudovirus infection
Organism: VSV pseudotyped with SARS-CoV-2 spike
Tested at: 10 µM
Time: 16 h
Baseline: vehicle-treated
Endpoint: GFP-positive cells
CC(=O)OCC(=O)[C@@]1(O)CC[C@H]2[C@@H]3CCC4=CC(=O)CC[C@]4(C)[C@@]3(F)[C@@H](O)C[C@@]21C: 105%
CCCCN1CCCC[C@H]1C(=O)Nc1c(C)cccc1C: 90.6%
O=C(O[C@H]1C[N+]2(CCCOc3ccccc3)CCC1CC2)C(O)(c1cccs1)c1cccs1: 84.1%
O=C1CCCC(=O)C1C(=O)c1ccc(C(F)(F)F)cc1[N+](=O)[O-]: 107%
CNNCc1ccc(C(=O)NC(C)C)cc1: 82.3%

Some of these lines once more (series 3):
AGUCCUGUGCUACACAUCGUAUGUACCGAAUCGGGGAAAAGGGAAAAGGGGAAAAGGGAAAGUAUUAUGUUACGCCGUUCGGAUCUGCAC: 0.372
UUACAGAUGUAGAGCUAAAACGACUGAAGGAUGCUUUCAAGAGGACCUGUGGACUCUCAUAUUACAUGGGCCAGCACUGCUUCAUCCGGG: 0.188
UAACUUUAGAGGAGGAGCUGAUGGAUAUGGCAGUGGACGUGGAUUUGGGGAUGGCUAUAAUGGGUAUGGAGGAGGACCUGGAGGUGGCAA: -0.662
AAGUCCUGUGCUACACAUCGUAUGUACCGAAUCGGGUUUGGGUGGGAAAAAAAGGGAAAGUAUUAUGUUACGCCGUUCGGAUCUGCACUU: 0.303
UGGGAGGUGGAUUUUGUUUAUUUUUUUACCUCAUUUCCAGGGGUGGGAAUUUUUUUUUAAUAUGUGUCAUGAAUAAAGUUGUUUUUGAAA: 1.75
